Experimental data pooled from the literature.
Each numbered part is a random draw from the data of one study; scales do not carry over between parts. Positions count from the first letter of the parent shown.

Sample 1 — Variant: H110R; method: DHFR PCA, deep sequencing; sample: yeast; reference: wild-type fitted maximum; reading: higher = stronger binding
Target: ABI1, truncated, D143A, DHFR fusion (Arabidopsis thaliana)
Setting: methotrexate growth selection, single substitutions
Starting sequence: PYL1, truncated, DHFR fusion (Arabidopsis thaliana); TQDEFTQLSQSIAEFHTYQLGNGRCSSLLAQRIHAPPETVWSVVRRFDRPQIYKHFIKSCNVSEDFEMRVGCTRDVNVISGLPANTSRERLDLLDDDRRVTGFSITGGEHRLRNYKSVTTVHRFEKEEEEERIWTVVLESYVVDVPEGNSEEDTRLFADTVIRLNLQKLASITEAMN; partner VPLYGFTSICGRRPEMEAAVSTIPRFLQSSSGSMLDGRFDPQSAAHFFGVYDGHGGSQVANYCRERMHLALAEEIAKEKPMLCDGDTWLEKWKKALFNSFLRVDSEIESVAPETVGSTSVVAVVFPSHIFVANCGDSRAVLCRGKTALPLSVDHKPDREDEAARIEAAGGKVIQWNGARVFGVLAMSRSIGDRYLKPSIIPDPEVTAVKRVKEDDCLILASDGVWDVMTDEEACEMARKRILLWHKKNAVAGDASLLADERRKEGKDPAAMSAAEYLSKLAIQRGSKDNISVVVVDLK
| setting | relative binding score [%] |
| --- | --- |
| with: (+)-ABA 0.032 µM | 17.3 |
| with: (+)-ABA 17 µM | 13.8 |
| with: (+)-ABA 4.8 µM | 5.65 |
| with: (+)-ABA 0.39 µM | 14.5 |
| with: (+)-ABA 58 µM | 16.2 |
| with: (+)-ABA 0.11 µM | 14.4 |

Sample 2 — method: protein-binding microarray; form: double-stranded DNA, one strand shown; sample: in vitro; concentration: 2540 nM top; setting: 60-bp whole probe; with: salmon DNA 0.4 mg/ml; reference: random background probes; reading: higher = stronger binding; shared flanks, not repeated: GCCTAGCAC … GTCTTGATTCGCTTGACGCTGCTG
Target: Interferon regulatory factor 3, full length, phosphomimetic (IRF3, Homo sapiens, UniProt Q14653, residues 1-427, S386D/S396D/S398D/S402D/T404D/S405D)
Residues (chain): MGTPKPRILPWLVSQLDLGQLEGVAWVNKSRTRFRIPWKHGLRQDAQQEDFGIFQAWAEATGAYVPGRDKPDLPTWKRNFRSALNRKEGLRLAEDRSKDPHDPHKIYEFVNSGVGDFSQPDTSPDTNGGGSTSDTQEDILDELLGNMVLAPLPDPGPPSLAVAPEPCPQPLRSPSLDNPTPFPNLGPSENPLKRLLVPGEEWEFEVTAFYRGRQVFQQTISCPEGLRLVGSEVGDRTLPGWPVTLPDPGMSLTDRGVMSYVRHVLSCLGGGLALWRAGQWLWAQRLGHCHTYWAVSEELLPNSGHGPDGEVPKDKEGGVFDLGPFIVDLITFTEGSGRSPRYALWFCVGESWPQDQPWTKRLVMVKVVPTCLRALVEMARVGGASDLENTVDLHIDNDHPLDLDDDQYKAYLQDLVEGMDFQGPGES
| Sequence | fitted relative affinity |
| --- | --- |
| TTAGGACTGGGCACTGGGTTAGTGCTA | -1.26 z-score |
| CCCTGTGTTACTTTCTACTTGTGCTAG | 1.64 z-score |
| CTAGGTTTCCTTTTCCTTTAGTGCTAG | 11.8 z-score |
| TCACTGCTCCTCTTTTTTACTGTGCTA | 0.278 z-score |
| GACGGATTGGACTATCGGGACGTGCTA | -0.0268 z-score |
| TTAGGACTGCTTCCCCTTTAGTGCTAG | 0.723 z-score |
| TAGCTTCCATTTTCTGAACGTGTGCTA | 3.13 z-score |
| AACGGTATCGACTATCGGGACGTGCTA | 0.616 z-score |

Sample 3 — method: protein-binding microarray; form: hairpin DNA; sample: in vitro; concentration: not given; reference: not given; reading: higher = stronger binding
Target: Cyclic AMP-dependent transcription factor ATF-1, full length (ATF1, Homo sapiens, UniProt P18846, residues 1-271)
Setting: whole hairpin DNA, median over replicate spots
Construct (chain): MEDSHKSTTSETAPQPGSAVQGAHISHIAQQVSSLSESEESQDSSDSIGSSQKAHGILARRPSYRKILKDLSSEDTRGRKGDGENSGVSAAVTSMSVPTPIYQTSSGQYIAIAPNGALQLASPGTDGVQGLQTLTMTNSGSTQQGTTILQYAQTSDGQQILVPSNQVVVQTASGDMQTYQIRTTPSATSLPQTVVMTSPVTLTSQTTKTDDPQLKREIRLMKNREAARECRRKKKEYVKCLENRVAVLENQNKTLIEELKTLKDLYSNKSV
| Sequence | median fluorescence |
| --- | --- |
| GAGGCCGGCTGACGGCAGCCTCCTGGCTGCCGTCAGCCGGCCTCACACTC (5mC at 30) | 3910 a.u. |
| GAGGCCGACGACGTCGGGCCTCCTGGCCCGACGTCGTCGGCCTCACACTC (5mC at 9 15 28 29 35) | 3820 a.u. |
| GAGGCCGGCGGACGTCAGCCTCCTGGCTGACGTCCGCCGGCCTCACACTC | 5410 a.u. |
| GAGGCCGGATGAGGTCAGCCTCCTGGCTGACCTCATCCGGCCTCACACTC (5mC at 32) | 3250 a.u. |
| GAGGCCGGGTGACGTCAGCCTCCTGGCTGACGTCACCCGGCCTCACACTC | 19000 a.u. |
| GAGGCCGGATGACGCGAGCCTCCTGGCTCGCGTCATCCGGCCTCACACTC (5mC at 29) | 6290 a.u. |
| GAGGCCGACGACGACGTGCCTCCTGGCACGTCGTCGTCGGCCTCACACTC (5mC at 9 15 29 35) | 3810 a.u. |
| GAGGCCAGCTGACGTCAGCCTCCTGGCTGACGTCAGCTGGCCTCACACTC | 10100 a.u. |

Single results of other studies — starting sequence: viral docking peptide; KGVKRKLFAEDSS
| Variant | target | test | system | setting | scale | endpoint | value |
| --- | --- | --- | --- | --- | --- | --- | --- |
| KDVKRKLFAEDSS [G2D] | CCNE2, cyclin fold, Cln2 fusion (human) | yeast growth competition, sequencing | yeast | strong parent motif | reference: not given, higher = stronger binding | normalised enrichment score | 6.04 |

For quick reference, copied from above (sample 3):
| Sequence | median fluorescence |
| --- | --- |
| GAGGCCGGATGACGCGAGCCTCCTGGCTCGCGTCATCCGGCCTCACACTC (5mC at 29) | 6290 a.u. |
| GAGGCCGGGTGACGTCAGCCTCCTGGCTGACGTCACCCGGCCTCACACTC | 19000 a.u. |
| GAGGCCGACGACGTCGGGCCTCCTGGCCCGACGTCGTCGGCCTCACACTC (5mC at 9 15 28 29 35) | 3820 a.u. |
